Experimental data of several laboratories.
Each line is one published result; not all experiments were run side by side. Numbers after ± are the reported error. No end group written: not given here.

For `COc1ccc2c(Cc3ccccc3F)c3n(c(=O)c2c1OC)CCc1cc2c(cc1-3)OCO2`, “TNF-α and IL-6 production” read “decreased” (mouse, collagen-induced arthritis, splenocytes; oral, 15 and 60 mg/kg, 24 h, together with: LPS 1 µg/mL; baseline: vehicle).
`Cc1ccc(NC(=O)c2ccc(CN3CCN(C)CC3)cc2)cc1Nc1nccc(-c2cncc(-c3oncc3C)c2)n1` has an NMSS score of 19.2 ± 18.7 (mild-to-moderate Parkinson's disease patients; oral, 100 mg once daily, day 7, on anti-Parkinson medication; direction not given).
`CC(C)[C@](O)(c1ccc2cc(OC(F)F)c(OC(F)F)cc2c1)c1c[nH]nn1`: “serum estradiol decline median” -52% (human patients; dose not given, cycle 2 day 1; baseline: baseline).
`O=C(O)CSc1nnc(C23CC4CC(CC(C4)C2)C3)n1-c1ccccc1`: “paw oedema inhibition” greater than 50% (rat carrageenan paw oedema; intraperitoneal, 40 mg/kg, 4 h after carrageenan; baseline: vehicle control).
`COc1c(C=O)c(O)cc2c1C(=O)c1ccccc1C2=O`: “Langerhans cell density” “increased” (hapten-induced migration; mouse, ear epidermis; topical, 20 µM, 24 h, together with: TNCB; baseline: vehicle).
For `C[C@H]1CC[C@H](n2c3cnccc3c3cnc(Nc4ccc5c(n4)CCN(C(=O)CO)C5)nc32)CC1`, the IC50 was 0.00393 µM (Rb Ser780 phosphorylation; mouse, orthotopic MOLM13-Luc tumour, femur; plasma concentration, model estimate).
`CCCn1c(=O)n(C2CC2)c(=O)c2[nH]c(-c3ccc(N(CC)C(=O)c4cccnc4)nc3)nc21` — result for “basal plasma glucose”: “no effect” (KKA diabetic mice; oral, 20 mg/kg four times at 12 h intervals, 2 day).
`Cc1cc(C)c(/C=C2\C(=O)Nc3ccccc32)[nH]1` gave a tumour area of 1.33 cm² (MRI; human; concentration not given, 14.3 months).
`CN(C)C(=O)N[C@H]1CC[C@H](CCN2CCN(c3cccc(Cl)c3Cl)CC2)CC1` has a locomotor activity of 40.6 ± 5.32 squares crossed (open field; Sprague-Dawley rat, ouabain mania model; intraperitoneal, 0.50 mg/kg, 1 h pretreatment, 30 min observation, together with: ouabain i.c.v.).
`CC[C@H](C)[C@H](NC(=O)[C@H](CCC(N)=O)NC(=O)[C@H](Cc1c[nH]cn1)NC(=O)[C@H](C)NC(=O)[C@H](CC(C)C)NC(=O)[C@H](CCCCN)NC(=O)[C@H](CCC(N)=O)NC(=O)[C@@H](NC(=O)[C@@H](NC(=O)[C@@H]1CSSC[C@H](NC(=O)CNC(=O)[C@H](Cc2ccccc2)NC(=O)[C@H](CO)NC(=O)[C@H](CCCNC(=N)N)NC(=O)[C@H](CC(C)C)NC(=O)CNC(=O)[C@H](CCC(N)=O)NC(=O)[C@H](Cc2ccccc2)NC(=O)[C@H](CC(N)=O)NC(=O)[C@H](CC(N)=O)NC(=O)[C@H](CCSC)NC(=O)[C@H](CO)NC(=O)[C@H](CCC(N)=O)NC(=O)[C@H](CCCNC(=N)N)NC(=O)[C@@H](N)Cc2ccc(O)cc2)C(=O)N[C@@H](CCCNC(=N)N)C(=O)N[C@@H](Cc2ccccc2)C(=O)NCC(=O)N[C@@H]([C@@H](C)O)C(=O)N1)[C@@H](C)O)C(C)C)C(=O)N[C@@H](Cc1ccc(O)cc1)C(=O)N[C@@H](CCC(N)=O)C(=O)N[C@@H](Cc1ccccc1)C(=O)N[C@H](C(=O)N[C@@H](CC(=O)O)C(=O)N[C@@H](CCCCN)C(=O)N[C@@H](CC(=O)O)C(=O)N[C@@H](CCCCN)C(=O)N[C@@H](CC(=O)O)C(=O)N[C@@H](CC(N)=O)C(=O)N[C@H](C(=O)N[C@@H](C)C(=O)N1CCC[C@H]1C(=O)N[C@@H](CCCNC(=N)N)C(=O)N[C@@H](CO)C(=O)N[C@@H](CCCCN)C(=O)N[C@H](C(=O)N[C@@H](CO)C(=O)N1CCC[C@H]1C(=O)N[C@@H](CCC(N)=O)C(=O)NCC(=O)N[C@@H](Cc1ccc(O)cc1)C(N)=O)[C@@H](C)CC)C(C)C)[C@@H](C)O`: “change in CDAI” -84 ± 62 (patients, biologic-resistant Crohn's disease; intravenous infusion, 15 ng/kg/min, 16 weeks, unit not given, together with: biologic; baseline: baseline).
`polymyxin B` gave a carboxyfluorescein leakage of 53% (EYPG vesicles; 10 µg/mL, 250 s, pH 7.4, 25 °C; baseline: Triton X-100).
`insulin lispro` — result for “maximum glucose infusion rate”: 9 mg/kg/min (euglycemic clamp; healthy humans; subcutaneous, 10 units, 8 h).
`insulin aspart` — result for “time to 10% of maximum GIR”: 30 ± 10 min (euglycemic clamp; human, type 1 diabetes; sc, 1 × 18 IU single bolus).
For `O=c1cc(-c2ccccc2)oc2c1ccc1ccccc12`, LPC ratios read “increased” (refers to: 18:1-LPC/18:0-LPC and 16:1-LPC/16:0-LPC; C57BL/6J mice; i.p., 80 mg/kg/day, 7 days, together with: elemicin 500 mg/kg oral; baseline: elemicin alone).
`Cy5-CVWSLQNTLFM (Cy5-labelled; sequence looked up)` — result for “ILVs per GUV”: 0.5 (GUV inward budding; peptide, POPC/cholesterol GUVs; 30 µM, 30 min).
`COc1nc(-c2cc(C)c(N[C@@H](C)c3cc(F)cc(F)c3)nn2)ccc1-n1cnc(C)c1`: “maximal Aβ42 and Aβ40 reduction” 60 to 70% (Macaca fascicularis, plasma; 10 to 200 mg/kg single dose, 4 h).
With `PACAP` the mRNA level was 146 ± 7.1% (qRT-PCR, GAPDH-normalised, refers to: Neprilysin; APP V717I transgenic mouse, 6 months old, brain; intranasal, dose not given, 3 months; baseline: vehicle-treated mice).
Under “change in GH AUC(0-2h)”, `NCCCC[C@@H]1NC(=O)[C@@H](Cc2c[nH]c3ccccc23)NC(=O)[C@H](c2ccccc2)NC(=O)[C@@H]2C[C@@H](OC(=O)NCCN)CN2C(=O)[C@H](Cc2ccccc2)NC(=O)[C@H](Cc2ccc(OCc3ccccc3)cc2)NC1=O` is recorded as 8.1% (GHRH-stimulated GH secretion; healthy volunteers; subcutaneous, 1 µg, median; baseline: pre-dose baseline).
`O=C(/C=C/c1ccc(O)c(O)c1)c1ccc(O)cc1O` gave a DPPH scavenging of greater than 80% (ethanol; 20 µM, 30 min).
Under “mRNA fold change”, `CS/C(S)=N/CCCC[S+](C)[O-]` (racemic) is recorded as 0.759 (RT-PCR, refers to: Abcb1b; rat, colon; oral gavage, 200 mg/kg, 96 h, dosed for four days; baseline: vehicle).
With `COc1ccc2c(c1)c(CC(=O)O)c(C)n2C(=O)c1ccc(Cl)cc1` the cytokine level was 107 ± 30.8 pg/mL (multiplex bead immunoassay, refers to: IL-12p70; CD-1 mice, serum; ip, 20 mg/kg, three-injection regimen, together with: LPS 3 mg/kg).
`cotadutide`: “change in time in range” 14.8% (refers to: CGM glucose 70 to 180 mg/dL; human, type 2 diabetes, CKD; dose not given, day 32; baseline: baseline).
For `C[C@@H]1COCCN1c1cc([C@]2(O)C[C@H]3CC[C@@H](C2)O3)c2cnn(-c3cc[nH]n3)c2n1`, the IC80 was 0.0186 µM (CHK1 phosphorylation, inhibitor, refers to: pCHK1 Ser345; mouse, LoVo xenograft, free plasma; 1 and 3 h).
`Nc1nc2c(ccc3ccccc32)s1` gave an EC50 of 0.093 µM (EDHF-type dilation potentiation, pressure myography; mouse, wild type, carotid artery; together with: 100 nM acetylcholine).
`leuprolide` — result for “TMPRSS2 mRNA level”: “decreased” (qRT-PCR; men with localised prostate cancer, prostate epithelium; dose not given; baseline: untreated men).
`CC(=O)Oc1ccccc1C(=O)O` — result for “thrombus protein content”: 77 ± 54 µg (Sprague-Dawley rat, common carotid artery; dose not given, 5 days twice daily, shear-induced thrombosis).
`COc1ccc2nc([S@@+]([O-])Cc3ncc(C)c(OC)c3C)[nH]c2c1` — result for “time with intragastric pH above 4”: 42% (healthy human; oral, single dose, 40 mg, 12 to 24 h, crossover vs dexlansoprazole MR).
`C[C@H]1C[C@H]2CSC(N)=N[C@@]2(c2nc(NC(=O)c3ccc(OC(F)F)cn3)cs2)CO1`: “change from baseline” -85.4% (refers to: CSF total Aβ; healthy adults; 275 mg once daily, 14 days, day 15; baseline: placebo-adjusted baseline).
`SIIVFEKL`: “TNF-α only cells” 0.04% (flow cytometry, refers to: CD44hi CD8+ T cells; peptide, OT-I CD8+ T cells, mouse; dose not given, primed 5 days, TGF-β1 from day 2 onward, together with: 20 ng/mL TGF-β1).
`O=C(CSc1nc(-c2ccccc2)c(-c2ccccc2)[nH]1)Nc1nccs1`: “maximal force reduction” roughly 2% (rat cardiac trabeculae; concentration not given, together with: pCa 4.0; baseline: control, 6% decline corrected).
Under “MAP response onset time”, `gamma-MSH` is recorded as 21.6 ± 2.01 s (Sprague Dawley rat, urethane-anaesthetised; intravenous, 15 nmol, 10% above baseline).
`Polymyxin B` has an IL-8 release of 49.1 ± 11% (human whole blood; 250 ng/mL, 4 h, 37 °C, together with: E. coli LPS 0.5 ng/mL; baseline: LPS without compound).
`cilengitide` — result for “total TGF-β1 level”: 9.77 ± 0.23 ng/mg protein (Sprague-Dawley rats, ethanol control, colonic smooth muscle cells; ip, 18 mg/kg/day, 42 d).
With `COc1ccc(/C(CSc2nnc(-c3nnn(-c4ccc(S(N)(=O)=O)cc4)c3C)n2-c2ccccc2)=N\O)cc1` the NO released was 3.18% (Griess; phosphate buffer-methanol; 100 µM, 1 h, pH 7.4, 37 °C, together with: N-acetylcysteine 0.5 mM; baseline: theoretical maximum release).
Under PGE2 production, `Cc1ccc(-c2ncc(Cl)cc2-c2ccc(S(C)(=O)=O)cc2)cn1` is recorded as “inhibited” (inhibitor; patients after hip surgery, hip drain tissue exudate; dose not given, 24 h observation period).
`SIYNFEKL` has a cytokine-negative cells of 24.1% (flow cytometry, refers to: CD44hi CD8+ T cells; peptide, OT-I CD8+ T cells, mouse; dose not given, primed 5 days, TGF-β1 from day 2 onward, together with: 20 ng/mL TGF-β1).
`CCCOc1ccc(S(=O)(=O)NCCC2CCCN2C)cc1-c1nc2c(CCC)nn(C)c2c(=O)[nH]1` (centres unmarked) — result for “change in ln reactive hyperemia index”: -0.03 ± 0.2 (peripheral arterial tonometry; human adolescents after Fontan palliation; oral, 87.5 mg twice daily, day 5; baseline: baseline, positive is improvement).
Under “transit peptide degradation”, `c1cnc2c(c1)ccc1cccnc12` is recorded as “stable” (chloroplast extract; concentration not given, up to 30 min).

Some of these lines once more:
`CN(C)C(=O)N[C@H]1CC[C@H](CCN2CCN(c3cccc(Cl)c3Cl)CC2)CC1` has a locomotor activity of 40.6 ± 5.32 squares crossed (open field; Sprague-Dawley rat, ouabain mania model; intraperitoneal, 0.50 mg/kg, 1 h pretreatment, 30 min observation, together with: ouabain i.c.v.).
`C[C@H]1C[C@H]2CSC(N)=N[C@@]2(c2nc(NC(=O)c3ccc(OC(F)F)cn3)cs2)CO1`: “change from baseline” -85.4% (refers to: CSF total Aβ; healthy adults; 275 mg once daily, 14 days, day 15; baseline: placebo-adjusted baseline).
`insulin aspart` — result for “time to 10% of maximum GIR”: 30 ± 10 min (euglycemic clamp; human, type 1 diabetes; sc, 1 × 18 IU single bolus).
`Cy5-CVWSLQNTLFM (Cy5-labelled; sequence looked up)` — result for “ILVs per GUV”: 0.5 (GUV inward budding; peptide, POPC/cholesterol GUVs; 30 µM, 30 min).
Under PGE2 production, `Cc1ccc(-c2ncc(Cl)cc2-c2ccc(S(C)(=O)=O)cc2)cn1` is recorded as “inhibited” (inhibitor; patients after hip surgery, hip drain tissue exudate; dose not given, 24 h observation period).
